Results from different studies.
Lines come from different studies, so protocols differ.
SBK3: Uncharacterized serine/threonine-protein kinase SBK3 (SBK3, Homo sapiens, UniProt P0C264)
Sequence of UniProt P0C264 (whole entry, looked up): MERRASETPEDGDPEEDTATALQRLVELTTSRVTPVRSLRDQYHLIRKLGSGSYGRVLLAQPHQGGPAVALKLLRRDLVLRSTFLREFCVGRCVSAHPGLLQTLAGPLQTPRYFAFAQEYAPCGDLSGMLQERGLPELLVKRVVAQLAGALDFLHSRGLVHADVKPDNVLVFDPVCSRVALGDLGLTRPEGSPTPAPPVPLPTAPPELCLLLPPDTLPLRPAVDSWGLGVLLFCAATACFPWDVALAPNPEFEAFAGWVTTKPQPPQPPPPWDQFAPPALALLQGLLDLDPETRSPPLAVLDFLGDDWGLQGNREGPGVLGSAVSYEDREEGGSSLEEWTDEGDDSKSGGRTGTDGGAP
4'-phosphopantetheinyl transferase PptT: 4'-phosphopantetheinyl transferase PptT (Mycobacterium tuberculosis, UniProt O33336)
Sequence of UniProt O33336 (whole entry, looked up): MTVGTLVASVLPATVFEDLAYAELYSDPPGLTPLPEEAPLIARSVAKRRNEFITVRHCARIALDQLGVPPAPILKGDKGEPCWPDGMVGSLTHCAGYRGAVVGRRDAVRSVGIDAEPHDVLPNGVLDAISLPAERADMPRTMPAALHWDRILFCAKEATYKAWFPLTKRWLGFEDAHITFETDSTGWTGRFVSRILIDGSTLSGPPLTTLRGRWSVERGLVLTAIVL
Sequence of UniProt P42336 (whole entry, unmodified, looked up): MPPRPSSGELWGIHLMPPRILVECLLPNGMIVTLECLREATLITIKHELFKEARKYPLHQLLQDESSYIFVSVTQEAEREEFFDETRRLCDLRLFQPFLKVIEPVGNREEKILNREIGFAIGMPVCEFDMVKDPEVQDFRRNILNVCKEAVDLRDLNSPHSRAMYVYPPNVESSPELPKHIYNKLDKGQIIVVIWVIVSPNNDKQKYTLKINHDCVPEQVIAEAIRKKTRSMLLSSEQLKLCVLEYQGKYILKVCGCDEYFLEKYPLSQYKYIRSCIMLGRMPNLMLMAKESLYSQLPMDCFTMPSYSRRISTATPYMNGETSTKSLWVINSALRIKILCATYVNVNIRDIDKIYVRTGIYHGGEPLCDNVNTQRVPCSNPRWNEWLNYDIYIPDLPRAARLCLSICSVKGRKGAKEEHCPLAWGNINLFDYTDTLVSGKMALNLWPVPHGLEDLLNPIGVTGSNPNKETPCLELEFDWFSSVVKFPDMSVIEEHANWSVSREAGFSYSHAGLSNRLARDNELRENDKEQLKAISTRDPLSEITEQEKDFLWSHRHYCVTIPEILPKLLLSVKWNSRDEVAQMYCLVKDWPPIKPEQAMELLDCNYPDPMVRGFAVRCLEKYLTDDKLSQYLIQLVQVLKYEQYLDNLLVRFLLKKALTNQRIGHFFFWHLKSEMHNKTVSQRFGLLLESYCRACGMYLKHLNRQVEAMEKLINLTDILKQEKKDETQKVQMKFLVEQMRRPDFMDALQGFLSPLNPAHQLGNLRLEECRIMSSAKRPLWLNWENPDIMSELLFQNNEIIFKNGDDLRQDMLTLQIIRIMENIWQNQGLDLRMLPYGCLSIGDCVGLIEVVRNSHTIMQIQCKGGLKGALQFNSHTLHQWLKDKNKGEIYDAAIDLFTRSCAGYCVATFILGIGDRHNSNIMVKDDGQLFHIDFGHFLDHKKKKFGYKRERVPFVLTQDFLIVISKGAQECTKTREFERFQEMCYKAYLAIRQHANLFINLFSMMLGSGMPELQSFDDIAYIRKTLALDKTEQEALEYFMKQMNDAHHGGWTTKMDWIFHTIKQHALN
Sequence of UniProt Q8TDX7 (whole entry, looked up): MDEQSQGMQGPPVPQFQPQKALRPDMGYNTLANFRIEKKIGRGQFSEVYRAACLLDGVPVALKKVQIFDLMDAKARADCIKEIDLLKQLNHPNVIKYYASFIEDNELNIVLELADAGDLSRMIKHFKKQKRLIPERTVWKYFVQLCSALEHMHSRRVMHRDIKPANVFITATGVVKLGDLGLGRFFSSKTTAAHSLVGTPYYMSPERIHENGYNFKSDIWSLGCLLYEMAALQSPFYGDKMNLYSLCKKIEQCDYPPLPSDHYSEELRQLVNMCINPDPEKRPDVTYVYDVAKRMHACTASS

SMILES = N#Cc1ccc(/C=C/c2nc3ccccc3c(=O)n2-c2cccc(F)c2)cc1; tested on = Enterococcus faecium; assay = microbial growth, broth dilution; system = NCTC7171; endpoint = MIC; result = > 128 µg/mL
SMILES = CCOC(=O)c1c(-c2ccc(OC)cc2)oc2ccc(OCc3cn(C[C@H]4O[C@H](O[C@H]5O[C@H](CO)[C@@H](O)[C@H](O)[C@H]5O)[C@H](O)[C@@H](O)[C@@H]4O)nn3)c(CN3CCCCC3)c12; tested on = Mycolicibacterium smegmatis; assay = microbial growth; system = MC2155; conditions = 72 h; endpoint = MIC; result = 102 µM
SMILES = Oc1c(Br)cc(Br)cc1-c1[nH]c(Br)c(Br)c1Br; tested on = Staphylococcus epidermidis; assay = microbial growth; system = ATCC14990; endpoint = MIC; result = 0.25 µM
SMILES = Cc1nn(C)cc1-c1nc2c(N3CCN(Cc4ccc(Cl)cc4)CC3)c(Cl)cnc2[nH]1; tested on = SBK3; assay = binding, competition with immobilised ligand; conditions = 1 µM; endpoint = remaining binding; result = 15%
SMILES = [2H]c1c([2H])c([C@]2([2H])CCCN2C(=O)C(C)(C)Oc2ccc3cn[nH]c3c2)c([2H])c([2H])c1C([2H])([2H])[2H]; tested on = Serine/threonine-protein kinase Nek7 (NEK7, Homo sapiens, UniProt Q8TDX7); assay = binding, competition with immobilised ligand; conditions = 1 µM; endpoint = remaining binding; result = 75%
SMILES = COC(=O)c1cc(-c2cccc(NC(=O)Nc3ccc(Cl)cc3)c2)on1; tested on = Mycobacteroides abscessus; assay = microbial growth, broth dilution; system = ATCC19977; conditions = 48 h; endpoint = MIC; result = > 64 µg/mL
SMILES = Nc1ncc(-c2nc(N3CCOCC3)nc(N3CCOCC3)n2)c(C(F)F)n1; tested on = Phosphatidylinositol 4,5-bisphosphate 3-kinase catalytic subunit alpha isoform (PIK3CA, Homo sapiens, UniProt P42336, I800L); assay = binding, competition with immobilised ligand; conditions = 10 µM; endpoint = remaining binding; result = 0.05%
SMILES = C#CC[N+]1(CC)CCc2c(sc(NC(=O)c3c(F)c(F)c(F)c(F)c3F)c2C(=O)OCC)C1 (stereo not drawn); tested on = Mycolicibacterium smegmatis; assay = microbial growth; system = MC2155; conditions = 72 h; endpoint = MIC; result = 1.8 µM
SMILES = O=c1c2ccccc2nc(/C=C/c2ccc(O)cc2)n1-c1cccc(O)c1; tested on = Enterococcus faecium; assay = microbial growth, broth dilution; system = NCTC7171; endpoint = MIC; result = > 128 µg/mL
SMILES = COc1ccc(-c2oc3ccc(O)c(CN4CCCCC4)c3c2C(=O)NCc2cn(Cc3ccccc3)nn2)cc1; tested on = Mycolicibacterium smegmatis; assay = microbial growth; system = MC2155; conditions = 72 h; endpoint = MIC; result = 39.2 µM
SMILES = COc1ncccc1-c1cnn2ccc(N3CCN(C(=O)OC(C)C)CC3)nc12; tested on = SBK3; assay = binding, competition with immobilised ligand; conditions = 1 µM; endpoint = remaining binding; result = 100%
SMILES = CC(C)c1ccc(Cn2c(=S)[nH]c3ccc(Cl)cc3c2=O)cn1; tested on = 4'-phosphopantetheinyl transferase PptT; assay = enzyme activity, inhibitor, FP; endpoint = IC50; result = 4.73 µM
SMILES = COC(=O)c1cc(-c2cccc(NC(=S)Nc3ccc(C)cc3)c2)on1; tested on = Mycobacteroides abscessus; assay = microbial growth, broth dilution; system = ATCC19977; conditions = 48 h; endpoint = MIC; result = > 64 µg/mL
SMILES = C[C@H]1COc2c(N3CCN(C)CC3)c(F)cc3c(=O)c(C(=O)O)cn1c23; tested on = Acinetobacter baumannii; assay = microbial growth; system = NCTC13304; conditions = drug-resistant strain; endpoint = MIC; result = 8 µg/mL
SMILES = O=c1ccc2nc3ccc(OCc4ccc([N+](=O)[O-])o4)cc3oc-2c1; tested on = Serratia marcescens; assay = microbial growth; conditions = 24 h; endpoint = MIC; result = > 32 µg/mL
SMILES = COC(=O)c1cc(-c2cccc(NC(=S)Nc3ccccc3)c2)on1; tested on = Mycobacteroides abscessus; assay = microbial growth, broth dilution; system = ATCC19977; conditions = 48 h; endpoint = MIC; result = > 64 µg/mL
SMILES = O=c1c2cc(Cl)ncc2[nH]c(=S)n1Cc1cccnc1; tested on = 4'-phosphopantetheinyl transferase PptT; assay = enzyme activity, inhibitor, FP; endpoint = IC50; result = 4.93 µM
SMILES = COC(=O)c1cc(-c2cccc(NC(=O)Nc3ccc(OC)cc3)c2)on1; tested on = Mycobacteroides abscessus; assay = microbial growth, broth dilution; system = ATCC19977; conditions = 48 h; endpoint = MIC; result = > 64 µg/mL
SMILES = O=c1ccc2nc3ccc(O)cc3oc-2c1; tested on = Enterobacter cloacae; assay = microbial growth; conditions = 24 h; endpoint = MIC; result = > 32 µg/mL
SMILES = COC(=O)c1cc(-c2cccc(NC(=S)Nc3ccc([N+](=O)[O-])cc3)c2)on1; tested on = Mycobacteroides abscessus; assay = microbial growth, broth dilution; system = ATCC19977; conditions = 48 h; endpoint = MIC; result = > 64 µg/mL
SMILES = Oc1c(Cl)cc(Cl)cc1-c1[nH]c(Cl)c(Cl)c1Cl; tested on = Staphylococcus epidermidis; assay = microbial growth; system = ATCC14990; endpoint = MIC; result = 0.13 µM

Excerpt of the above:
SMILES = COC(=O)c1cc(-c2cccc(NC(=S)Nc3ccccc3)c2)on1; tested on = Mycobacteroides abscessus; assay = microbial growth, broth dilution; system = ATCC19977; conditions = 48 h; endpoint = MIC; result = > 64 µg/mL
SMILES = C[C@H]1COc2c(N3CCN(C)CC3)c(F)cc3c(=O)c(C(=O)O)cn1c23; tested on = Acinetobacter baumannii; assay = microbial growth; system = NCTC13304; conditions = drug-resistant strain; endpoint = MIC; result = 8 µg/mL
